Measurements pooled from the literature.
“And” joins repeats or separate records; there may be more than shown. ± marks the error that the study gave.
Target: Beta-secretase 1 (BACE1, Homo sapiens, UniProt P56817)
Sequence of UniProt P56817 (whole entry, looked up): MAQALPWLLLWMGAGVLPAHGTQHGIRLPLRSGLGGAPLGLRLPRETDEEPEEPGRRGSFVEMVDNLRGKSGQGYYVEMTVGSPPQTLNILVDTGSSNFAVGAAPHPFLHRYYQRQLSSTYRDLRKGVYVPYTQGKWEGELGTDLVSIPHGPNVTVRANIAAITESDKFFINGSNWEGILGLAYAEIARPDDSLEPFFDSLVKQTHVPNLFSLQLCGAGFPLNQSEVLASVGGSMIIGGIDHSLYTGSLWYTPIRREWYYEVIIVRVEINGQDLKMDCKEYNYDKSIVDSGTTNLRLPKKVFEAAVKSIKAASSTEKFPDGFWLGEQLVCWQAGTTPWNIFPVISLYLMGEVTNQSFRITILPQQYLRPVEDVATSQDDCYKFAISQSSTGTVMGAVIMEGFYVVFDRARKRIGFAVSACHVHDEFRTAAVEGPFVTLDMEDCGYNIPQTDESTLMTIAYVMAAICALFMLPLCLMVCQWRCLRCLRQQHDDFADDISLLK

COc1cc(OC)c2c(O)c3c(cc2c1)OC(C)(O)CC3=O (centres unmarked)  IC50 (enzyme activity, inhibitor, FRET): > 100000 nM
CC[C@H](C)[C@H](NC(=O)[C@@H](C[C@H](O)[C@@H](N)COc1cccc(OCCCOC)c1)OC)C(=O)NCc1ccc(Cl)cc1  IC50 (enzyme activity, inhibitor; pH 4.5): > 10000 nM
COc1cc(OC)c2c(O)c3c(=O)cc(C)oc3c(-c3c(OC)cc4cc5c(c(O)c4c3OC)C(=O)CC(C)(O)O5)c2c1 (centres unmarked)  IC50 (enzyme activity, inhibitor, FRET): 72800 nM
CC[C@H](C)[C@H](NC(=O)[C@H](Cc1ccccc1)C[C@H](O)[C@@H](N)COc1ccc(-c2ccc(F)cc2)c(OCCCOC)c1)C(=O)NCc1ccc(Cl)cc1  IC50 (enzyme activity, inhibitor; pH 4.5): 470 nM
COC(=O)C1CCCN1C(=O)C(Cc1ccccc1)N(C)C(=O)CC(O)C(CC(C)C)NC(=O)C(CC(C)C)N(C)C(=O)C(CC(C)C)NC(=O)C(O)C(C)C (centres unmarked)  IC50 (enzyme activity, inhibitor; pH 4.0, added: fluorogenic peptide substrate): > 100000 nM
CC(C)CNC(=O)[C@@H](NC[C@@H](O)[C@H](Cc1ccccc1)NC(=O)c1cc(C(=O)N(C)[C@H](C)c2ccccc2)cc(N(C)S(C)(=O)=O)c1)[C@H](C)O  Ki: 1810 ± 194 nM
COc1cc(OC)c2c(c1)c(-c1c(O)cc3cc4oc(C)cc(=O)c4c(O)c3c1OC)c(O)c1c(=O)cc(C)oc12  IC50 (enzyme activity, inhibitor, FRET): 70000 nM
CCC[C@H](O)[C@H](NC[C@@H](O)[C@H](Cc1ccccc1)NC(=O)c1cc(C)cc(C(=O)N(C)[C@H](C)c2ccccc2)c1)C(=O)NCC(C)C  Ki: 563 nM and 564 nM
CO[C@H](C[C@H](O)[C@H](COc1cccc(OCc2ccccc2)c1)NC(=O)c1cccc(N(C)S(C)(=O)=O)c1)C(=O)N[C@H](C(=O)NCc1ccccc1)C(C)C  IC50 (enzyme activity, inhibitor; pH 4.5): 2200 nM
Cc1cc(C(=O)N[C@@H](Cc2ccccc2)[C@H](O)CN[C@H](C(=O)NCC(C)C)[C@H](C)O)cc(C(=O)N(C)[C@H](C)c2ccccc2)c1  Ki: 1660 ± 44.6 nM
CC(C)=CCN=C(N)NCCC[C@@H](NC(=O)CCCc1ccc(O)cc1)C(=O)N[C@@H](Cc1ccccc1)C(O)CC(=O)N[C@@H](Cc1ccc(O)cc1)C(=O)O (stereo in doubt)  IC50 (enzyme activity, inhibitor): > 100000 nM
